Assay results gathered from unrelated publications.
Numbered parts are unrelated; each lists some results of a single study. Changes are numbered by the printed parent chain.

Sample 1
Target: Cyclic AMP-dependent transcription factor ATF-1, full length (ATF1, Homo sapiens, UniProt P18846, residues 1-271)
Technique: protein-binding microarray
Molecule type: hairpin DNA
Matrix: in vitro
Concentration: not given
Setting: whole hairpin DNA, median over replicate spots
Reference: not given
Direction: higher = stronger binding
All sequences stand within: GAGGCCG … CGGCCTCACACTC
Construct (chain): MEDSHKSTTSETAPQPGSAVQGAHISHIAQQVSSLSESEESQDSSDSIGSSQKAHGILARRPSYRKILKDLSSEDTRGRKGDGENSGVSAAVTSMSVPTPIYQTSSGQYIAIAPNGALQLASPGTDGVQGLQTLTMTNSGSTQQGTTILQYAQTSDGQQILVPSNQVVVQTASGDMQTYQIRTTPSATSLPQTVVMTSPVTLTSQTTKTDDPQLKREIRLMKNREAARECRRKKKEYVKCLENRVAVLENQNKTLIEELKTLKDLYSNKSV
Strand | median fluorescence
GATGACGTCGGCCTCCTGGCCGACGTCATC | 9980 a.u.
GCTGACGCCAGCCTCCTGGCTGGCGTCAGC | 3780 a.u.
GCTCGCGTCAGCCTCCTGGCTGACGCGAGC (5mC at 11) | 4010 a.u.
ACGACGTCGCGCCTCCTGGCGCGACGTCGT (5mC at 9 15 29 35) | 4710 a.u.
ACGTCGTCGTGCCTCCTGGCACGACGACGT (5mC at 9 15 29 35) | 3310 a.u.
GCTGACGTCAGCCTCCTGGCTGACGTCAGC (5mC at 37) | 10500 a.u.
GCTGACGTCCGCCTCCTGGCGGACGTCAGC | 5150 a.u.
GCTGCCGTCAGCCTCCTGGCTGACGGCAGC (5mC at 12) | 3590 a.u.

Sample 2
Target: Hepatocyte nuclear factor 3-alpha (Foxa1, Mus musculus, UniProt P35582, residues 1-468, full length assumed)
Technique: EMSA with sequencing
Molecule type: double-stranded DNA, one strand shown
Matrix: in vitro
Concentration: 10 and 20 nM
Setting: whole designed probe, mean of two concentrations, ends assumed
Reference: negative control set to 0
Direction: higher = stronger binding
Construct (chain): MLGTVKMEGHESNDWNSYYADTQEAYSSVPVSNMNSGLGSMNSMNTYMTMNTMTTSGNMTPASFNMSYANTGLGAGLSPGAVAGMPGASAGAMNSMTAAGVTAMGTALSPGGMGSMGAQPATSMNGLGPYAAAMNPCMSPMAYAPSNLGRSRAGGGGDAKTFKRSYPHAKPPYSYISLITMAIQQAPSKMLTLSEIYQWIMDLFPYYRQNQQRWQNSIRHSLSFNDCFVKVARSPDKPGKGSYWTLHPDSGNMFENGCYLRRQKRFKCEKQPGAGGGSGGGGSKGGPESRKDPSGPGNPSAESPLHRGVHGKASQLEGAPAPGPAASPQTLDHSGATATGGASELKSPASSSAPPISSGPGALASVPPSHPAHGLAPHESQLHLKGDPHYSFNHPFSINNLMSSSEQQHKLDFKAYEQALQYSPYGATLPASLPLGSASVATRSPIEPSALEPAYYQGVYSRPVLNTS
Strand | normalised bound fraction [ratio]
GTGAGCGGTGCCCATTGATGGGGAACTGAAGTGGGAACCTGAGGGTCATCTGAGAATTTTCCCTACCCACCTGAATAGATTTCTAAAATCACCTTTCAGTTGCTTTTGCTGTCTTTCTAAGTAAACAAAGATATCATCTCCAAATAATAATTAATTGAACTGCTTTTCAATTGTATTCATTAAAATAATTATCTTTTTCTGGCTTATATGAAGTATTTCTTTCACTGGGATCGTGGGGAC | 0.479
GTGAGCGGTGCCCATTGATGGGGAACTTTACTTGTTTCTTTACATCACAGATATTTTGTTGAAAACTATTAAGATAGTATTTCTAGAATATAATAAAACATTCAGAATAGCATTGCTAAGCAATTTCACTGTGCCATGATTATGTTTTTTTGCAATGTGTATGCAATTGCTTTATTTTACATTAGGAAATAGACAAAATGCATCTATTCATTTTTCTTTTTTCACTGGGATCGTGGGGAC | 0.0329
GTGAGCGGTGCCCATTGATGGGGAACAGCAGGAAACTCTCCCACCCCTTTTTCCTCTCTCTTTCAAAGCAATTTGTTTCAGTATTTTAGCATACAAAAAAATAGAACCATTTTCTTCAATGTAAACAGAGATCTGCAGGGAAATAAGAGCGTTAAAAAAGAATTAGCATTTGTTTGGTGGTGAAGCTGCTTTTGTTTGTATCAGAAAGCTCTGCATGTTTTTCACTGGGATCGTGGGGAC | 0.326
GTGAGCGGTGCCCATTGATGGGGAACACTTCCACAAGGGAAGATAATGATAAAACATTAATAAAAATATCTATGAAGATGAGGACACAATAGAAAGCACAAGTTACATTGGGAAAAAGAGTCAACAGATACAACAAGATAATTCACATCCCAATAATTAAGGGTAATAAAGCAATATGAAAGAGGTAAGTATGCTTAAAATGTTTATTGACCAAAAGAATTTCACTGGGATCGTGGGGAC | 0.232
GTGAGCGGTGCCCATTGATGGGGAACAAGTTACTAAGTTATTGTAAAACAAAAAAGAAAACAAAACAAAACAGGATTTTAGCCAAAGCTGCCTATATTCACAGCAGAGATCTGAACCACTTGTTTACACTGAGGTGATGTGGAGTGTCTCCCAGTACCTCTGAAACTAGAAAAGTCTATATGTTCTCCCACATTAAGCAGGCCAAAAAGTATTTTGTTCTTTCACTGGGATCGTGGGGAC | 0.287
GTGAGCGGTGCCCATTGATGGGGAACTTTCCAGCCCTTAGTTTCTGGCATTTAACCTGACTCTGGTCCCTGAATGGCATGGGAGCTGACTCATTCACAGGTTTCCACATTCATGCCACTTGTTTGCTTTTCTGTCACATTCTGATCTACAGAGATCTTTATTTGCTTTGTGTTTCCAATGGAGAAAGAGCTTGGGAAGGGAGGATCCTAATTGTCTAAATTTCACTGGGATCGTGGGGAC | 0.515
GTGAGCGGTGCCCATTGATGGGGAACTTATGATCTGAGTATATATAGTAAGTACCTCCCCTTTCAGGGTAAGGCAGTAGGTAATGGTGAACAGGGAAGCAAAAGGAGACTCTGGTTGAGTAAACAACACCAAGCATATCAGACTCTAGGAATGCTTCAGAGGCCAGGGGTGCATGCCTGTAATCCCAGCACCTTGGAAGGCTGACACAGGAGGATCACTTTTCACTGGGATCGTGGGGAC | 0.43
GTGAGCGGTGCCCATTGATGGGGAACATGTGAATTTCTTCCGTTCCTTAGGAAAAAAGGATACACCATTTCTATTCATAAAGTGTATACTCTGAGATATTTAATATTAAGTCTTTCTTCATGTTTACATATAACATCTATCCTCTAACTTTATATATGCTTTTATAATAATCTGAACAATGTTAGTGTTGCTGCTTTTAAAATTATGAACTATTTCAAATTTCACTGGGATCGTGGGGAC | 0.326

Sample 3
Target: UBE2D3 UBC core domain (UniProt P61077)
Technique: yeast two-hybrid
Matrix: yeast
Setting: mostly zero background
Reference: not given
Direction: higher = stronger interaction
B1: RNF170 RING domain (UniProt Q96K19); chain TRQQFYTDMYCPICLHQASFPVETNCGHLFCGACIIAYWRYGSWLGAISCPICRQTVTLLLTVF
Residues (chain): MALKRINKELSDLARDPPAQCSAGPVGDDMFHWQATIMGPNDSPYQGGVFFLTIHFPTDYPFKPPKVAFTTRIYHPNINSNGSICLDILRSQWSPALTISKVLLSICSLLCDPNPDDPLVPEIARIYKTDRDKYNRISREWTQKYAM
Molecule | lacZ reporter activity
EDEVSDNSAECVVCLSDVRDTLILPCRHLCLCNTCADTLRYQANNCPICRLPFRALLQIR (RNF157 RING domain (UniProt Q96PX1)) | 0
DDENSDNSNECVVCLSDLRDTLILPCRHLCLCTSCADTLRYQANNCPICRLPFRALLQIR (MGRN1 RING domain (UniProt O60291)) | 0
B1 (RNF170 RING domain) | 0
KTLSRFGIQPCSICLGDAKDPVCLPCDHVHCLRCLRAWFASEQMICPYCLTALPDEFSPA (RNF213 RING domain (UniProt Q63HN8)) | 0

Sample 4
Target: CCNE1, cyclin fold, Cln2 fusion (human)
Technique: yeast growth competition, sequencing
Matrix: yeast
Setting: strong parent motif
Reference: not given
Direction: higher = stronger binding
Parent: viral docking peptide; TSVRRALFTGGSD; partner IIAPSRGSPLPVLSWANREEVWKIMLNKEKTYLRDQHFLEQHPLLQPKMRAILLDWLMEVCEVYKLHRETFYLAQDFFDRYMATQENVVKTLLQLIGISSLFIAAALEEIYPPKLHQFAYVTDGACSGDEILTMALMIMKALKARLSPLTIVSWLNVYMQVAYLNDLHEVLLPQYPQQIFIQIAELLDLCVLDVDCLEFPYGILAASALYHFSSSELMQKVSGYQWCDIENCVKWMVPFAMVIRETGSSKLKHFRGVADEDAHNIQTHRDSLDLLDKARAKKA
Change | normalised enrichment score
G11T | 5.89
S12G | 5.48
L7A | 0.107
G10R | 3.92
G11H | 5.37
S2D | 4.01
S12D | 6.55
T9L | 5.27
F8W | 3.39
S2V | 2.97
V3K | 0.456
L7T | 0.0921
G11R | 4.33
S12T | 5.59
L7C | 0.181
R4T | 1.7
S2W | 3.07
F8C | -0.233
G10F | 4.16
G10A | 5.76
D13A | 4.83
A6T | 4.76
L7G | 0.0195
G10W | 3.49
S12Q | 5.8

Sample 5
Target: HLA class I histocompatibility antigen, A alpha chain, allele A*80:01 (Homo sapiens, UniProt P04439)
Effect on: peptide-MHC binding
Molecule type: peptide
Concentration: concentration not given
Molecule | binding
LVAPHMAMM | inactive
GYLHDFLKY | inactive
WLGDVWQEK | inactive
VSDRPVMRY | inactive
DIKLIDIAL | inactive

Repeated from above (sample 4):
Change | normalised enrichment score
S2V | 2.97
G10A | 5.76
T9L | 5.27
G11R | 4.33
S12D | 6.55
D13A | 4.83
F8W | 3.39
